Experimental data collected from several papers.
Parts stem from different laboratories: compare values within a part only.

Series 1
Target: RNA binding protein fox-1 homolog 2, RRM domain, GST-SBP tag (RBFOX2, Homo sapiens, UniProt O43251-10, residues 100-194)
Method: RNA Bind-n-Seq
Form: RNA
Matrix: in vitro
Concentration: 365 nM
Setting: natural RNA segment, single round, ends assumed
Relative to: no-protein control
Direction: higher = stronger binding
Quantity: RBNS enrichment (R)
Shared flanks, not repeated: GGGAGUUCUACAGUCCGACGAUC … UGGAAUUCUCGGGUGCCAA
Residues (chain): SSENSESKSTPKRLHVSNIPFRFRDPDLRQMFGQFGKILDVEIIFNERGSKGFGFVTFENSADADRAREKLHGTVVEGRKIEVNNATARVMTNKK
GCCACCCCUUCCUCUUCCGAUUCUCCUAGCAGCCACUCAGAGAUAAUUUAAUUCCAGAUUGGAAACGCCCUUUUAGUUUAUCAGAUUGGUAACUUACAUCCUGCUGCCCA: 0.643
GUUGUUGCAUGUUUGAAAUGAGGUCUGUUUAAAGUGGCAAUCUCAGAUGCAGUUUGGAGAGUCAGAUCUUUCUCCUUGAAUAUCUUUCGAUAAACAACAAGGUGGUGUGA: 9.16
CGUGGCUGCUGAAAAGACACAUGUUCACAUGGAGACAAACCAAGCUGCUCGCUCUCGGCUGUAUGCACCUUCUAGACAGCAGAACGUCUGGUGGGAAGACAUGCCAGUGU: 0.287
UCUGCCACAGUACAAGGUACAGAGUAUGGGCAUCUUAGAGGAAAUGUCUGCUUCCGUCCCCUCGUUCUGGUGAACGUUGGGAGAGAGGAUGAGAGAGACAUUAAAAUUCU: 0.485
UUCAUGUGGAACCCUCACCUGGGCUACAUCCUCACCUGCCCAUCCAACCUGGGCACCGGGCUGCGGGCAGGUGUGCAUAUCAAGCUGCCCAACCUGGGCAAGCAUGAGAA: 0.302

Series 2
Target: TAR DNA-binding protein 43, full length, His tag (TARDBP, Homo sapiens, UniProt Q13148, residues 1-414)
Method: RNA Bind-n-Seq
Form: RNA
Matrix: in vitro
Concentration: 20 nM
Setting: 6-mer, flanks averaged, single round
With: 150 mM LiCl
Relative to: input library
Direction: higher = stronger binding
Quantity: 6-mer enrichment (R)
CAGGUG: 1.08
AAGACU: 0.801
UGGGGG: 1.57
CUUAAC: 0.861
AGGGCU: 0.963
CAAUCG: 0.803
CUCAUA: 0.865

Series 3
Target: Phosphate system positive regulatory protein PHO4, full length, GST-tagged (PHO4, Saccharomyces cerevisiae, UniProt P07270, residues 1-312)
Method: competition protein-binding microarray
Form: double-stranded DNA, one strand shown
Matrix: in vitro
Concentration: 2 µM
Setting: whole 60-bp probe, lowest competitor level
With: Cbf1 competitor, 0.05 µM
Direction: higher = stronger binding
Quantity: fluorescence intensity
Shared flanks, not repeated: … GTCTTGATTCGCTTGACGCTGCTG
Construct (chain): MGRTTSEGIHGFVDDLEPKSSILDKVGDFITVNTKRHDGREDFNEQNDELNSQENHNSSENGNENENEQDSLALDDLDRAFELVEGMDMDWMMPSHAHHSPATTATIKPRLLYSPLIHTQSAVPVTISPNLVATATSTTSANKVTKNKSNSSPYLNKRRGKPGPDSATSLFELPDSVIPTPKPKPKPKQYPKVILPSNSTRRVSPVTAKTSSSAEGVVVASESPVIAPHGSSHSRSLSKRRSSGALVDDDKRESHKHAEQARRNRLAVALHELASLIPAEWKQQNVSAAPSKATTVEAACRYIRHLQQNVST
GTAGCTTCGCGGCAATGCCTGATCCGACAGCCGCAA: 2580 a.u.
ATCAAATGAGACTAGCACATGGGGCTCTCGTTAGCC: 12300 a.u.
CCGCAAGTATGCTGTCATGTGTGCTTAGCAATTACG: 8350 a.u.
GGGCCCGCAGTTTTGCACATGCGCGTTACTGGATCG: 9070 a.u.
CTATTGATGAACAATCACGGCCTCTTGGCTAAGCCC: 3520 a.u.
TGCGCAACAACTTGTCACCTCACTTTATGTCTAGAA: 2960 a.u.
CGTCCTAGTGATTGCGGGGTGGGTGCCATGAGGAAG: 6990 a.u.

Mixed results
PhoQ, residues 284 288 289 292 302 303 SMMNNA — fold induction (PhoP, residues 12 14 15 18 19 LYFRQ (Escherichia coli, UniProt P23836); Sort-seq, refers to: YFP reporter; E. coli; PhoQ-PhoP variant library, with: 10 µM Mg2+; relative to: high Mg2+ state, higher = stronger signaling): 9.12

For quick reference, copied from above (series 2):
AGGGCU: 0.963
CAAUCG: 0.803
